Measurements pooled from the literature.
Every numbered part comes from another study and shows a few of its results, in no order. Positions count from the first letter of the parent shown.

Block 1
Target: CCNA1, cyclin fold, Cln2 fusion (human)
Technique: yeast growth competition, sequencing
Medium: yeast
Notes: weak parent motif
Baseline: not given
Direction: higher = stronger binding
Starting sequence: REV3L docking peptide (human); PPVIIKYIIINRF
Substitution	normalised enrichment score
PPAIIKYIIINRF [V3A]	0.315
PPVIIKYIIINAF [R12A]	0.257
PPVIIKAIIINRF [Y7A]	0.0978
PPVAIKYIIINRF [I4A]	0.0999
PPVIIKYIIANRF [I10A]	-0.0344
PAVIIKYIIINRF [P2A]	-0.0145

Block 2
Target: Sal-like protein 4, full length isoform B (SALL4, Homo sapiens, UniProt Q9UJQ4-2, residues 1-616)
Technique: universal PBM
Form: double-stranded DNA, one strand shown
Medium: in vitro
Concentration: not given
Notes: 8-mer, flanks averaged, mean of replicates
Direction: higher = stronger binding
Sequence	E-score
TCATCCGA	0.00229
ACATTTAA	0.24
TAAAGGCA	0.11
ACCTAAAT	0.182
GGTCAAAA	0.0407
ACGGAAAA	0.118
GCCAGGGA	-0.281
AACCTAGG	-0.0331
ATCTCCTC	-0.039
GTAATTCA	0.201
ACTTACAG	0.0717
GAGGGTAA	-0.0254
ATCTCTGG	0.00492
CCCTCTTA	0.00816
AGTCTCAC	0.0103
ACCTTACT	0.201
ATGTGATA	0.23
CGACGACG	-0.166
CTGTGTTC	0.00226
CCTCGCTC	-0.0157
CACAGTCG	-0.0914
AGGTTAAC	0.121
ACCTATTA	0.168
GTCTCATA	0.215
TCGCTGAA	0.0946

Block 3
Target: Hepatocyte nuclear factor 3-alpha (Foxa1, Mus musculus, UniProt P35582, residues 1-468, full length assumed)
Technique: EMSA with sequencing
Form: double-stranded DNA, one strand shown
Medium: in vitro
Concentration: 10 and 20 nM
Notes: whole designed probe, mean of two concentrations, ends assumed
Baseline: negative control set to 0
Direction: higher = stronger binding
Constant ends, left off below: GTGAGCGGTGCCCATTGATGGGGAAC … TTTCACTGGGATCGTGGGGAC
Construct (chain): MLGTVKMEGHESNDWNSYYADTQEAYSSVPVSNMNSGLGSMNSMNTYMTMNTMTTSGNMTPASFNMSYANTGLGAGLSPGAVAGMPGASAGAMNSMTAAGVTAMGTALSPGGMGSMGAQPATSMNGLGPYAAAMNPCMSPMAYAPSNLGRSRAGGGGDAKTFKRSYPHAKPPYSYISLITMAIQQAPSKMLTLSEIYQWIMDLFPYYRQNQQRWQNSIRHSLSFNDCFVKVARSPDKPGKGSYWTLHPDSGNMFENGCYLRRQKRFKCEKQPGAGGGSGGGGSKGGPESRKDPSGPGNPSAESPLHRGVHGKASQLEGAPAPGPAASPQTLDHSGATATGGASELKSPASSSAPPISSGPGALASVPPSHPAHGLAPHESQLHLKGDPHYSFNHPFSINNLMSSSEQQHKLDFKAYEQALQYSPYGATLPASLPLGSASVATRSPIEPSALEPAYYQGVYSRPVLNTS
Sequence	normalised bound fraction [ratio]
CCTTGTATTCTTCAGATCTCATTTTCCCCCAAATTTCTGCAGTGGTTGGCTTCCATTTCAGCATCAGTCACGAAATCTTGAAGGTCAGACACAGTAAACAGGGAAGGACATAAAATTAAGTGATTTGGGCGTAGTTTTGAGTCTCACAACTTTAACAGGGATGAGTCATACATTAAAGTATGTCGAAATAAAT	0.0674
AACAATCTCCATGCACTAACCCTGGTTAATGTATTACTCTTTAACTCACACTCTAATCTAACTGTGACAGTGATGAGTTGTAAATTCTGCTTCATGTGTACATTTCCTGAGGTTGACATTAAAACGCCTCTGCAGACCCAGCAGAGTTCAGAGGTTTAAAGTTGAAATTTTCATATTCAAATAGAGTTGTCTG	0.119
AGGTGAATTGGCTGCTTCCATCCTGGCTTGGAACTTCAGACATAGAAGCCTTGGGACTTTCTCAGGACTTTCTCCAGATCTGTCACATGCTCAGCAAACAAGCACTGACTCATGCCACGTGACCTTAGCCAGGGATGTTGGTGAAACTGTGTGTTGGTCTAGGTACCTAGCCCATGCTAGGTGCTCATCGAAT	0.112
AGATTACAAGGTCCTAGAAATTTAACATGCAAAATCTGGAGAAGATAGAGAGTAGGGTGGGGTTGTTGAAAGGTTTTTAGTAGGGTTTTCCAAAGTAATCTTAGTCAGGTTATTTTAAAAAATAAAATATAACTTGTTAGCTTGAAAGTAGGAGAAAAAAATTTAAAAAAATAAAATTTCAGTGTTAGATATA	-0.0109
AAGACAAATAAGAAAGATATTTCCTCCCCTACATTATCTGGATTTCTCCATGAAACACCCATTATGGCATAGACAAATTGGTTACTATCTTAAGTAATCTTTGGTAGGAAAACTTTGAAAAGGCAACTGAGCTTACTTTTGGGTCATGTGTCACCTGTCAAAAATATAACTCTGGAAAAACTGTAAAGTTGGG	0.109
TTGAGTATAGACCCAATAATAGGATTGTTGGGTCAAATTTCTGTTTTTAGCTCTTTGAAGAAGCGCCACATTTCTTCCCACAATGGTTGAACTAAATTACACACCTGCCAAGACTGTGTAAGTGTTCTCTTTTCTCCACAACCTCTCCAGCATCTTTTATTTTTTGACTTTTTTTGTGTGTTCTACTTTGTTA	0.024
AGAACTTGGGTTGCCACAAAGAGATCTGAACTTGTTTTAACTTGTTAAGTCAGTTTTAGAAATACAAAGGTTTAAAGCAGTTTGATGGCTATGTAATTTAGGAAGTTTGCAAAGAACCTGGGTCTACCTCTGGCTATTCAGCAGCTTGGCAAGAGATGACCCGAGTTCTCAGAGTCCCCATCTTTGCATCTGT	-0.0564
TACTTCTTTCCTTTAACATATGGCATTTGCTTAACCTCTTGGAGAGTTGTGGTTTTCTGACCCTGGAGTTCTGATGGGAAAGATAATGAGAAGAGATTACTTAGCATCTAGGCCAGCAAGCTAAGAAAAACATTGTGCCATGCTAGTATTGACAAGGTGACAGAGAGCCCACACTTGCCTCACATGTTGGCCA	0.00998

Block 4
Target: ABI1, truncated, D143A, DHFR fusion (Arabidopsis thaliana)
Technique: DHFR PCA, deep sequencing
Medium: yeast
Notes: methotrexate growth selection, single substitutions
Added: (+)-ABA 0.11 µM
Baseline: wild-type fitted maximum
Direction: higher = stronger binding
Starting sequence: PYL1, truncated, DHFR fusion (Arabidopsis thaliana); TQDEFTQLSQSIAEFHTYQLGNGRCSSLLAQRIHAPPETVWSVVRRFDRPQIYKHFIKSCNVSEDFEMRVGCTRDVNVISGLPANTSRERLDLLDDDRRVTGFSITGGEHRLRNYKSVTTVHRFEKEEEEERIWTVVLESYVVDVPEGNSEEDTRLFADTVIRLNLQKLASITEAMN; partner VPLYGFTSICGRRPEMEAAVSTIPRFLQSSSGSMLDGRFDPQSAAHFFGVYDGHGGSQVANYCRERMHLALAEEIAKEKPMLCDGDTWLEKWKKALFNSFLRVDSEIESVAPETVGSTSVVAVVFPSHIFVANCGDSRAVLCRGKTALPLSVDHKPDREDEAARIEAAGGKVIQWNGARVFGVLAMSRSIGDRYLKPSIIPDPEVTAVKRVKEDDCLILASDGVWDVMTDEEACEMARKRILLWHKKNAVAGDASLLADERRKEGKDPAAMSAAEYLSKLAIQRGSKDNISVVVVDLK
Substitution	relative binding score
E67C	14.8%
N61D	39.4%
K116S	19.6%
E125R	32.2%
R49S	22.7%
L28W	1.49%
A170Q	19.9%
V143W	-5.15%
F103N	-10.2%
E127G	44.6%
M176W	13.7%
A158D	0.988%
C60G	1.72%
L93G	-5.26%
S117F	-5.05%
E64D	49.8%
R32F	21.9%
V137R	-2.15%
N77L	32.6%
P146H	0.591%
L112I	-0.996%
N22K	48.9%
E67R	16.5%
H110S	48.5%
Y141S	3.22%

Block 5
Target: Histone acetyltransferase KAT6A, winged helix 2, GST fusion (KAT6A, Homo sapiens, UniProt Q92794, residues 85-181)
Technique: protein binding microarray
Form: double-stranded DNA, one strand shown
Medium: in vitro
Concentration: not given
Notes: 8-mer, flanks averaged, mean of 2 arrays, mostly near background
Baseline: not given
Direction: higher = stronger binding
Residues (chain): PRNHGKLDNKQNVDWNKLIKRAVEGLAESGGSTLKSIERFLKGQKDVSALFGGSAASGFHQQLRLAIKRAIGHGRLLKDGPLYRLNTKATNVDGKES
Sequence	E-score
GATACTAA	0.0188
GAGGCGGC	0.285
AAGCCATG	-0.056
ATCAGCAC	0.0498
GGCGTTGA	-0.0781
GACGGTAA	-0.212
AGCACCCG	0.0841
CACTACAG	0.00427
TCCCGGCA	0.0998
TAGCCGCA	0.206
AAAGATTC	0.0632
GGCCTGAA	0.035
TGCGCGAA	0.282
CGATATGA	-0.0954
CACCACTA	-0.0858
AAGTGCAA	-0.136

Block 6
Target: RNA binding protein fox-1 homolog 2, RRM domain, GST-SBP tag (RBFOX2, Homo sapiens, UniProt O43251-10, residues 100-194)
Technique: RNA Bind-n-Seq
Form: RNA
Medium: in vitro
Concentration: 365 nM
Notes: natural RNA segment, single round, ends assumed
Baseline: no-protein control
Direction: higher = stronger binding
Constant ends, left off below: GGGAGUUCUACAGUCCGACGAUC … UGGAAUUCUCGGGUGCCAA
Construct (chain): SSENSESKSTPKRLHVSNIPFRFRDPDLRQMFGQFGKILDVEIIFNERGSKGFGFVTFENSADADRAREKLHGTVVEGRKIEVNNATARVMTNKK
Sequence	RBNS enrichment (R)
UGGCCCCACGUGUGUGGUGUUUGUGUGUCUGUGCCUGGCCAAGGGAGGUGCCAACACUGGGCUUGCCACAGCCCCAGGAGAGGAAUUUGGGGCCUAGGAACCGAGGGCAC	0.602
GGGCCAGCCUCUCUGUGCUGCGUGGCUGUCGGUCCCCCUCAGCUGGGAAAGAGAGCACUGGCUCACUGUGCAGUUUUCAUGUUUCCUCAGCAAGCCAUCAAGCCUCACAU	0.465
CAAAGAUAAAGUUGUAUUUUUUUCUUAGAAUGGCCUUUAAUUCCCUGUGGCAAUUACAGUUUUUGACUUUUCCAUGUGAGAAUAAGGCCUUGGUAUUUCCCUAAGGGCAG	0.398
AACCCAUGUCUGACUUAGUGCUGCCUGUGUUGGUAAGAGUCAGCAAGUGCCCUUAGGAAGCCACACGGAGGGGAUGCUGGGAGUCCUGACAUAUGAAUCUAUUUAUUAUG	1.06
UGCUCCAGCCAGGGCCCCUGCGCUUCCUGUGCAGACAGGAAGCUGUGUGGGAGACUGUCAUUUGGGAAUUUGAUUUUUUUUUUUCUGUACGAAUUUAAAAAAAAAAGAAA	0.491
GCAAAAUAGAAUUAAGCAAUGGGUAAGCAAAAUAGGGUUGACAAGAUAUUUGGGGGUUAUUCGGGUUAUGGCCCAUUUAUUUCCCUCUUCCCCCUGAAUUGACCAGUAGC	2
CACUGUUAGGCUUGGGCAUUAGCCUGGCCCAAGAGAUGCCACUGGGGACUAGAGGACAGAAGGGGACGUUCCCUUCACCUGGGAAUUCUCACCCUGGUGUCAACAUGCUG	0.279
UCUUGUGUGUUGCUUGGACAUUUGCAAUUCAGAAGAUAAGCUAGAGAGGCUCUUACUAGGGCCCUCAUUUCUCCUUUUCUGUAUAAGUAUAAGGUCCAGGCUGGUCCUUA	0.272
UUAUAAGAAAACCAGCAUAAUACCUGAUAUAUUAAAAUGUAGUGCCUGUGAAACCUGUAUUAUACUGCUCUUCUGAAGUAAGACUUUUCUACACCGGUAGCCUUCGCUGU	8.17
GAUCUCCUGCCUCACACACCUGUUUGUGACUUUCCCAGCAAGUAGCUCUGUUACCCUGAGAACACCAGAGCUCCCCUUGUCUCCCUCUCUCUCUCAUCCAGGGUCCCUGC	0.852
UUUUGUUUUGUUUUAAUGGCUCAUUUGUAAAAUUGUCCUAAUUUUUCCUAGCUUUCAGCCAUUAGAAACUCUUUUAAUAGUUCCUUUUGAGUUGUGAGCUCUUCUUCUGU	0.539
UUAAAAUCUAAUUCAAACUAAUAGAAUUAAUGGAAUAUGUAAAUAGAAACGUGUAUAUUUUUUAUGAAACAUUACAGUUAGAGAUUUUUAAAUAAAGAAUUUUAAAACUC	0.662

A few entries again (block 2):
Sequence	E-score
TCGCTGAA	0.0946
CGACGACG	-0.166
AACCTAGG	-0.0331
ACTTACAG	0.0717
ACCTTACT	0.201
ACGGAAAA	0.118
GTAATTCA	0.201
CACAGTCG	-0.0914
ATCTCTGG	0.00492
GGTCAAAA	0.0407
